Measurements gathered from unrelated publications.
Each numbered part is a random draw from the data of one study; scales do not carry over between parts. Values joined by “and” are separate records of one study, mostly repeats; a detail may differ. Substitutions count along the parent as printed.
Sequence of UniProt Q05513 (whole entry, looked up): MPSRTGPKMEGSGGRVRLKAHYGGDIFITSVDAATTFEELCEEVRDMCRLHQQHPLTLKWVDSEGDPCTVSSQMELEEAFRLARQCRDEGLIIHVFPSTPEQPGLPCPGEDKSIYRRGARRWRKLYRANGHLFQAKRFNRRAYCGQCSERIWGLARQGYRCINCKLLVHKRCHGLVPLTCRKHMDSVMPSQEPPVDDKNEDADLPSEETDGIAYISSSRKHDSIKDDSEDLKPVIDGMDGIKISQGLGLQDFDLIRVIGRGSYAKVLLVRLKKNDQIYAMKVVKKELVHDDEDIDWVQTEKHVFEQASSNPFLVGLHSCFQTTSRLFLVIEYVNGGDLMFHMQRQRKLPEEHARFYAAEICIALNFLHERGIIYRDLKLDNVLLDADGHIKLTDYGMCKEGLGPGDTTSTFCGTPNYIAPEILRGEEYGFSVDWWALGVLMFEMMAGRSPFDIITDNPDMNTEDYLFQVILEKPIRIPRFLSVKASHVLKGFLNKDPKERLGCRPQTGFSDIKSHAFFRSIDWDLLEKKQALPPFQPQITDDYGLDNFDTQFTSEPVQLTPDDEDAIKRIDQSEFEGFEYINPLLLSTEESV
Sequence of UniProt P29317 (whole entry, looked up): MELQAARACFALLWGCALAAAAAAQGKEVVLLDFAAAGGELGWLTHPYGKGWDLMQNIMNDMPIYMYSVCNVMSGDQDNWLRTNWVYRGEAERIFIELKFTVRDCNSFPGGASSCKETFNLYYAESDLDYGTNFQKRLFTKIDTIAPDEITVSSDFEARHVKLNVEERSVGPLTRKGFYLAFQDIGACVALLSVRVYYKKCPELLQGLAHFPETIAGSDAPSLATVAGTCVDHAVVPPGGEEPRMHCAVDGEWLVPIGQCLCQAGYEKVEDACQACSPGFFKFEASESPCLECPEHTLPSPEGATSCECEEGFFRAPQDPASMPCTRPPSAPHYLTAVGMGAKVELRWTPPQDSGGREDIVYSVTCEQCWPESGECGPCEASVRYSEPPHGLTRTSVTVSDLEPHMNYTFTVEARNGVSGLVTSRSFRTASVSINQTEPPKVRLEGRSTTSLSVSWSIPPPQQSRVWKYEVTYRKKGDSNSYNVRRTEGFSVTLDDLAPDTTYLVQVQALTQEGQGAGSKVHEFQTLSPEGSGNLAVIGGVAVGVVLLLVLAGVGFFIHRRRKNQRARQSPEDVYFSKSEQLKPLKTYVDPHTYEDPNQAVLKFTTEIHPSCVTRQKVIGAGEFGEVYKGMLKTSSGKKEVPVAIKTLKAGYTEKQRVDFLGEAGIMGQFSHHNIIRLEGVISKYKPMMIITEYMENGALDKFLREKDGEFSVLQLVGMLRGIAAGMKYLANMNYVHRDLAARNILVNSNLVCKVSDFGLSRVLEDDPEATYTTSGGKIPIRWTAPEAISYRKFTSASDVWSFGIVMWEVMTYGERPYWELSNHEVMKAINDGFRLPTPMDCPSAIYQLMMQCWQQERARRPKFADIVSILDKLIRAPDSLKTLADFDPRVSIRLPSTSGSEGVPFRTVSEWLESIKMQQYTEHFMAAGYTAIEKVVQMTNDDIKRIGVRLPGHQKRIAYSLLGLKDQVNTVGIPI
Sequence of UniProt Q14012 (whole entry, looked up): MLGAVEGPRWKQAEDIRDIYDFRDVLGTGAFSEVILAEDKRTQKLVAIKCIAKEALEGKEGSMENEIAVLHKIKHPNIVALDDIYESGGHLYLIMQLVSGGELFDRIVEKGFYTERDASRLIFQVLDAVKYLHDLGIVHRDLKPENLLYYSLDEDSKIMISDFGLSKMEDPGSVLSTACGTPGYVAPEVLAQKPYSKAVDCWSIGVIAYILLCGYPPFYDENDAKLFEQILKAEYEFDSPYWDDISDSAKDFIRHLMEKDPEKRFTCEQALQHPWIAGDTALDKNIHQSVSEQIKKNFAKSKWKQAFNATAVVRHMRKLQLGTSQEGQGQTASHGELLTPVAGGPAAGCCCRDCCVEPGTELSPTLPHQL
Sequence of UniProt P51812 (whole entry, looked up): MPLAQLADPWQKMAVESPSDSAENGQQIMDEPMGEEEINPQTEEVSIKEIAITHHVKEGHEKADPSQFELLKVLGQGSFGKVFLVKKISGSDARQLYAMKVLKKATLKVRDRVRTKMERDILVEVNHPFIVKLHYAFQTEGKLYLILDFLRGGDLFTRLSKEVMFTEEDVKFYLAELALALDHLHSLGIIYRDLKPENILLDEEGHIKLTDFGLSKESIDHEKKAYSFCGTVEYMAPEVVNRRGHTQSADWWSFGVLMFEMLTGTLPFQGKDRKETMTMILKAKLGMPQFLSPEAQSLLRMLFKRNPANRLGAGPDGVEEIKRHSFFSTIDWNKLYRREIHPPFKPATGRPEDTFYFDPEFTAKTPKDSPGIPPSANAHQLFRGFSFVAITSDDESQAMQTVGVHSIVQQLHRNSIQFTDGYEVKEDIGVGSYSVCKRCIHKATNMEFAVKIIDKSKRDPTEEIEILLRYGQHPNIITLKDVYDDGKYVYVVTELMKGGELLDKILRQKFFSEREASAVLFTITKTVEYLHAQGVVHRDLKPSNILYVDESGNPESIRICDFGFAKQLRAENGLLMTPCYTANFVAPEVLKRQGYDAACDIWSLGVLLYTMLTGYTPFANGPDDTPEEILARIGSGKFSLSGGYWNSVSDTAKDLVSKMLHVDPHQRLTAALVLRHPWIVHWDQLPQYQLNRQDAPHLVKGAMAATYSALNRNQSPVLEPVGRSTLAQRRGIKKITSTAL
Sequence of UniProt O15146 (whole entry, looked up): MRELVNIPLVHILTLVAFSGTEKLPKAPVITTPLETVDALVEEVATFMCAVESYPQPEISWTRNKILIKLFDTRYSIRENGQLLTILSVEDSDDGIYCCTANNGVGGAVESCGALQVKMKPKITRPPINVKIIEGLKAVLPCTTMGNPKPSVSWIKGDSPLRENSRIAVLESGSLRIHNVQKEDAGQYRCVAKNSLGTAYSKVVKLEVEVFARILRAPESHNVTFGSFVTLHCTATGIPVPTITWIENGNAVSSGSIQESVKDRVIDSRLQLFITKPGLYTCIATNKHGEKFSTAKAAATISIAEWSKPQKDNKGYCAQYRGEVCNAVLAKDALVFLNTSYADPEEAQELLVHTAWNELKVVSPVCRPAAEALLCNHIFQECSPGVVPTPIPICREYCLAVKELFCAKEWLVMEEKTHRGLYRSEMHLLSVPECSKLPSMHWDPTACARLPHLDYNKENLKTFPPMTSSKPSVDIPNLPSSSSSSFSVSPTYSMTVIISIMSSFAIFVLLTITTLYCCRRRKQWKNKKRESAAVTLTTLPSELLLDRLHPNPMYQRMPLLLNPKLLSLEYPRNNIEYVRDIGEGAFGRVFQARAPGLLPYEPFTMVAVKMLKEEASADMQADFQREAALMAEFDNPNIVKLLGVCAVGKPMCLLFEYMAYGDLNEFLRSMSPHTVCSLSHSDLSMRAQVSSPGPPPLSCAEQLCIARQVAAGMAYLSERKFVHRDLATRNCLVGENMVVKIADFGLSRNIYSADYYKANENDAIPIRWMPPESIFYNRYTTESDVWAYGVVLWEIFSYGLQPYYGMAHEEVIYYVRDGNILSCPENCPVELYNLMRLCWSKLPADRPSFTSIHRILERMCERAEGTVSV
Sequence of UniProt Q04759 (whole entry, looked up): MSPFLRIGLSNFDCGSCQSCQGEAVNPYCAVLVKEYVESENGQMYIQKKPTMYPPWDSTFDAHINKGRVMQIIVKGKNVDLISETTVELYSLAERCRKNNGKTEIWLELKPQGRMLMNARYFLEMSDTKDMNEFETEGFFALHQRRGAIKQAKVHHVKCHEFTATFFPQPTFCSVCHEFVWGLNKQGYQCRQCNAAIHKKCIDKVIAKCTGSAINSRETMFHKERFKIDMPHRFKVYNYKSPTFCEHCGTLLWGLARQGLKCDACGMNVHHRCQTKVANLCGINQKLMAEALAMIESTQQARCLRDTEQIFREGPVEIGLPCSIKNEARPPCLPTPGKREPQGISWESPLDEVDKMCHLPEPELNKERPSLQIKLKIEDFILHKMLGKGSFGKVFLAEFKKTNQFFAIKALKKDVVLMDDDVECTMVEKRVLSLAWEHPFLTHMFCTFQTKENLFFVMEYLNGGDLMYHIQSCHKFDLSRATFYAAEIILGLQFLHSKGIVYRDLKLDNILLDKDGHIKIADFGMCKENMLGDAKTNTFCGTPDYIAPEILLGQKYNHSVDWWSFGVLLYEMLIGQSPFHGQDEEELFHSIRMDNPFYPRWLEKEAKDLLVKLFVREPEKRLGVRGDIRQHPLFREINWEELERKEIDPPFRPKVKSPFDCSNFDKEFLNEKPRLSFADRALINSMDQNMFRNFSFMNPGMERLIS
Sequence of UniProt Q8N5S9 (whole entry, looked up): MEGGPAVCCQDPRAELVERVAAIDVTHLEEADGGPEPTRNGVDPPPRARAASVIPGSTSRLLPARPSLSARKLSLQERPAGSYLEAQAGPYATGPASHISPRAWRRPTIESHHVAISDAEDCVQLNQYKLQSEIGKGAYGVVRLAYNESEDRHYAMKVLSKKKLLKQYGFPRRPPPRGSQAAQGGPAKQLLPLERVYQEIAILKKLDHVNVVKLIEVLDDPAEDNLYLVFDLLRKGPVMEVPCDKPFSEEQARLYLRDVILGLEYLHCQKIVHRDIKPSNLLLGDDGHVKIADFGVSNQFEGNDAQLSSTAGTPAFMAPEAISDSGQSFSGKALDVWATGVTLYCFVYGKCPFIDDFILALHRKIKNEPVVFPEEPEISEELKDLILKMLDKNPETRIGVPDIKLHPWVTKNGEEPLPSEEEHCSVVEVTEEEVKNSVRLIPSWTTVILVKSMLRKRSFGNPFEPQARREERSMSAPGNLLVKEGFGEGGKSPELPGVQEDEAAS

Study 1 — Compound: Cc1cc(Nc2nc(-c3ccccc3)nc3ccccc23)n[nH]1; effect on: enzyme activity; mode: inhibitor; tested at: 0.5 µM; baseline: control; endpoint: remaining activity
target = TYRO3 (Homo sapiens, UniProt Q06418); value = 94.2%
target = SRPK1 (Homo sapiens, UniProt Q96SB4); value = 90.1%
target = IGF1R (Homo sapiens, UniProt P08069); value = 70.8%
target = TEC (Homo sapiens, UniProt P42680); value = 106%
target = CLK2 (Homo sapiens, UniProt P49760); value = 91.7%
target = SGK2 (Homo sapiens, UniProt Q9HBY8); value = 99.7%
target = CAMKK1 (Homo sapiens, UniProt Q8N5S9); value = 90.7%
target = JAK1 (Homo sapiens, UniProt P23458); value = 83.7%
target = MUSK (Homo sapiens, UniProt O15146); value = 51%
target = EPHA2 (Homo sapiens, UniProt P29317); value = 94.8%
target = FLT1 (Homo sapiens, UniProt P17948); value = 78.7%
target = PAK1 (Homo sapiens, UniProt Q13153); value = 79.5%
target = CAMK1 (Homo sapiens, UniProt Q14012); value = 93.1%
target = RPS6KA3 (Homo sapiens, UniProt P51812); value = 66.1%
target = MAP3K20 (Homo sapiens, UniProt Q9NYL2); value = 87.1%
target = CSNK1E (Homo sapiens, UniProt P49674); value = 97.4%
target = SIK2 (Homo sapiens, UniProt Q9H0K1); value = 99.6%
target = PRKCZ (Homo sapiens, UniProt Q05513); value = 97.1%
target = PRKCQ (Homo sapiens, UniProt Q04759); value = 82.3%
target = PAK6 (Homo sapiens, UniProt Q9NQU5); value = 78.9%
target = Cyclin-dependent kinase 2, with cyclin E (CDK2, Homo sapiens, UniProt P24941); value = 75.4%
target = CSNK1D (Homo sapiens, UniProt P48730); value = 96.7%

Study 2 — cell line: normal organoid sample H; method: CellTiter-Glo; host: human; medium: normal-adjacent epithelium; tested at: 0.1 µM; baseline: DMSO; endpoint: viability
SMILES = O=C(Nc1ccc(Oc2ccc(F)cc2)cc1)N1CCc2ncccc2[C@H]1c1ccc(F)cc1; value = 102% and 113%
SMILES = CNCc1ccccc1-c1csc([C@H](C)Nc2nc(C)nc3cc(OC)c(OC)cc23)c1; value = 70.2% and 94.7%
SMILES = C[C@@H]1CN(c2cc(-c3n[nH]c4ccc(OC5(C)CC5)cc34)ncn2)C[C@H](C)O1; value = 120% and 95.1%
SMILES = COCCOc1nc(-c2ccc(Cl)nc2)nc2c1CN(C(=O)c1ncn3ccccc13)CC2; value = 104% and 171%
SMILES = CCCOc1ccc([C@@H]2[C@@H](C(=O)O)[C@H](c3ccc4c(c3)OCO4)CN2CC(=O)Nc2c(CC)cccc2CC)cc1; value = 151% and 118%
SMILES = CCS(=O)(=O)c1cc2cc(C[C@@](O)(CC(C)(C)c3ccc(F)cc3C(N)=O)C(F)(F)F)[nH]c2cn1; value = 119% and 91.2%
SMILES = COc1ccc2cc(OCC3(C(=O)O)CN(C(=O)c4ccc(F)cc4)C3)ccc2c1; value = 109% and 117%

Study 3 — target: CRIPT, C-terminal peptide; method: DHFR complementation, deep sequencing; medium: yeast; baseline: wild type; reading: higher = weaker binding; endpoint: binding free energy change
Setting: single substitutions, model-inferred values
Parent: ERBIN, PDZ domain 1 (human); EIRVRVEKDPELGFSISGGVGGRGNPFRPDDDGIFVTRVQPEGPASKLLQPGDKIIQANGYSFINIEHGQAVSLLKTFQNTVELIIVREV; partner TKNYKQTSV
Change = K76H; value = 0.661 kcal/mol
Change = A71K; value = 1.5 kcal/mol
Change = G69S; value = 0.0901 kcal/mol
Change = T81D; value = 0.0803 kcal/mol
Change = L74R; value = 0.093 kcal/mol
Change = G69F; value = 0.17 kcal/mol
Change = N25D; value = 0.657 kcal/mol
Change = I64P; value = 1.21 kcal/mol

Study 4 — method: protein-binding microarray; molecule type: hairpin DNA; medium: in vitro; tested at: not given; baseline: not given; reading: higher = stronger binding; endpoint: median fluorescence
Target: Homeobox protein Hox-B13, full length (HOXB13, Homo sapiens, UniProt Q92826, residues 1-284)
Sequence of UniProt Q92826 (whole entry, looked up): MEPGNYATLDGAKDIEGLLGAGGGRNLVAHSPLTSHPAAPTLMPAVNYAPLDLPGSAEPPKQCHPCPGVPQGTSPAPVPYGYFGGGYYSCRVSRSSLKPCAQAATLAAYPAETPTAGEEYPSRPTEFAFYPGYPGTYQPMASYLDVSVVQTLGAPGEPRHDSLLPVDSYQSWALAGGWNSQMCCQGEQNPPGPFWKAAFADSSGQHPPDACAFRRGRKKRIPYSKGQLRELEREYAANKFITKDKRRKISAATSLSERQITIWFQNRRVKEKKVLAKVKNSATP
Setting: whole hairpin DNA, median over replicate spots
Strand = GAGGCCGTTTTCTTGGGGCCTCCTGGCCCCAAGAAAACGGCCTCACACTC; value = 3700 a.u.
Strand = GAGGCCTTTTTATTGGGGCCTCCTGGCCCCAATAAAAAGGCCTCACACTC; value = 4880 a.u.
Strand = GAGGCCGCTTTACGAGGGCCTCCTGGCCCTCGTAAAGCGGCCTCACACTC; value = 5040 a.u.
Strand = GAGGCCGTCGTACGAGGGCCTCCTGGCCCTCGTACGACGGCCTCACACTC; value = 3960 a.u.
Strand = GAGGCCGTTTTACGATGGCCTCCTGGCCATCGTAAAACGGCCTCACACTC; value = 4680 a.u.
Strand = GAGGCCGTTTTATTGGGGCCTCCTGGCCCCAATAAAACGGCCTCACACTC; value = 5320 a.u.
Strand = GAGGCCGTCGTACGAGGGCCTCCTGGCCCTCGTACGACGGCCTCACACTC (5mC at 9 35); value = 3910 a.u.
Strand = GAGGCCGTTTCGTTGGGGCCTCCTGGCCCCAACGAAACGGCCTCACACTC (5mC at 11); value = 3970 a.u.

Mixed results
SMILES = c1ccc(Oc2ccc(Nc3c4c(nc5ccccc35)CCC4)cc2)cc1; tested on = Leishmania infantum; assay = qPCR; test system = MHOM/BR/1972/BH46, golden hamster, chronic infection, liver; conditions = oral, 10 mg/kg/day, 10 days, added: glucantime 50 mg/kg/day i.p.; endpoint = parasite load; value = 42 amastigotes/g tissue and 50.8 amastigotes/g tissue and 45.5 amastigotes/g tissue and 484 amastigotes/g tissue and 56.8 amastigotes/g tissue and 40.8 amastigotes/g tissue
SMILES = CC(C)n1cnc(-c2ccc(F)cc2)c1-c1ncc(C(=O)Nc2ccc(N3CCN(C)CC3)cc2)[nH]1; test system = human, idiopathic pulmonary fibrosis; conditions = 30 mg once daily, trial, treatment-emergent; endpoint = patients with muscular weakness; value = 0%

A few entries again (study 1):
target = SRPK1 (Homo sapiens, UniProt Q96SB4); value = 90.1%
target = IGF1R (Homo sapiens, UniProt P08069); value = 70.8%
target = TEC (Homo sapiens, UniProt P42680); value = 106%
target = CLK2 (Homo sapiens, UniProt P49760); value = 91.7%
target = SGK2 (Homo sapiens, UniProt Q9HBY8); value = 99.7%
target = CAMKK1 (Homo sapiens, UniProt Q8N5S9); value = 90.7%
target = JAK1 (Homo sapiens, UniProt P23458); value = 83.7%
target = MUSK (Homo sapiens, UniProt O15146); value = 51%
